Assay results gathered from unrelated publications.
Parts stem from different laboratories: compare values within a part only. Changes are numbered by the printed parent chain.

Set 1
Cell line: yeast with cyclin B3-Cln2 chimera
Observed: cell growth
Mode: binder
Technique: competitive growth deep sequencing
Molecule type: peptide
Concentration: concentration not given
Notes: peptide tiling library
Direction: direction not given
Quantity: growth enrichment score
KVRRNLFNQELLSP: -0.321
NRLLKLFTRCLTPLVP: -0.292
ELGMEHCEKFEISETS: 0.0413
YLYLLLTQSLWCRV: -0.721
LAKRALKYTD: -0.981
RTEALEQGGLPKKLIF: 0.893
NESHLDKEHDAVEVAD: 0.337
EHCRVLFLDHVMYTIH: -0.896
ATNSSHTDAHEILVSD: 0.289
ISRLFPPRTPGWHQLQ: -0.2
VSRNLRSSLKSSLHTL: -0.268
SPREGHMMDALYAQVK: 0.553
GPVKLEFDVSDGAT: -0.765
SFLIEYEFLIPPSLKP: 0.911
PPTFLSTGEIHAFLSS: 0.00354
HRRRLLFACSPPPASQ: -0.749
AGSAKRRLFGEDPPKE: -0.249

Set 2
Target: Interferon regulatory factor 7, full length, phosphomimetic (IRF7, Homo sapiens, UniProt Q92985, residues 1-503, S101K/S471D/S472D/S475D/S476D/S477D/S483D/S484D/S487D)
Sequence of UniProt Q92985 (whole entry, unmodified, looked up): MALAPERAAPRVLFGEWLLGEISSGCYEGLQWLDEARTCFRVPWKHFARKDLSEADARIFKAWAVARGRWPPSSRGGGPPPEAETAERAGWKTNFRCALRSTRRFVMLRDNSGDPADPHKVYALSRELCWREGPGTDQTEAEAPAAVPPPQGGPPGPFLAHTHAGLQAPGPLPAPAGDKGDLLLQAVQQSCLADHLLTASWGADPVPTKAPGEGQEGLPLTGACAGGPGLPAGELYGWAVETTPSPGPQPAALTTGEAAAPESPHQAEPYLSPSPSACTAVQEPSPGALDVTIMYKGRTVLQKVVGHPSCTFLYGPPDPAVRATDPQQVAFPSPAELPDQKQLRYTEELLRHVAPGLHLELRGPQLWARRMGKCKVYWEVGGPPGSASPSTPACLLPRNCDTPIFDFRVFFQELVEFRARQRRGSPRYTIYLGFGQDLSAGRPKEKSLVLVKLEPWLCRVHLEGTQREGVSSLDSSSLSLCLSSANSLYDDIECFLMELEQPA
Technique: protein-binding microarray
Molecule type: double-stranded DNA, one strand shown
Matrix: in vitro
Concentration: 250 nM
Notes: 60-bp whole probe
Added: salmon DNA 0.4 mg/ml
Relative to: random background probes
Direction: higher = stronger binding
Quantity: log fluorescence
Constant ends, left off below: GCCTAGCAC … GTCTTGATTCGCTTGACGCTGCTG
TCACATCTGGGTATTTTACTGTGCTAG: 0.0505 z-score
TCATTTGACTCTTTCTGACTGTGCTAG: 0.992 z-score
TTAGGATTGCTTCTCCTTTAGTGCTAG: 0.458 z-score
CTCTTTTTGCTTTCTTTTATGTGCTAG: 2.04 z-score
ATGCCTTTCGTCAAGAAGACGTGCTAG: 0.606 z-score
TTTGGTATCGGTCTCGGTTAGTGCTAG: 2.63 z-score
GAAGGTTTCCTTTCCCTGACGTGCTAG: 4.97 z-score
GAATGAATGGACATTTCTTCGTGCTAG: -0.172 z-score
GACGGTTTCGACACTGGAGACGTGCTA: 4.33 z-score
AGTGTTTGCCCTATTTAAAAGTGCTAG: 1.43 z-score
GACCGACTGGGGTTTCGGGACGTGCTA: 1.42 z-score
GACGGAGTGCTTTTCCTGACGTGCTAG: -0.204 z-score
TTAGGTTTCGACTATCGGTTAGTGCTA: 5.33 z-score
GTGACAGTTTTATTTTAGTTGGTGCTA: 0.358 z-score
TTAGGGATCGACTATCGGTTAGTGCTA: -0.16 z-score
TTAGCTTCCGGTTTCGGTTAGTGCTAG: 8.14 z-score
TTCGGTATCCTTCTCCTTTAGTGCTAG: 0.306 z-score
ATAGGTATCCTTTTCCTTTAGTGCTAG: 1.6 z-score
ATAGAACTGGGGTATCGATTAGTGCTA: 0.222 z-score
GACGGTCCCCTACTGCTGACGTGCTAG: -0.195 z-score

Set 3
Target: Hepatocyte nuclear factor 3-alpha (Foxa1, Mus musculus, UniProt P35582, residues 1-468, full length assumed)
Sequence of UniProt P35582 (whole entry, looked up): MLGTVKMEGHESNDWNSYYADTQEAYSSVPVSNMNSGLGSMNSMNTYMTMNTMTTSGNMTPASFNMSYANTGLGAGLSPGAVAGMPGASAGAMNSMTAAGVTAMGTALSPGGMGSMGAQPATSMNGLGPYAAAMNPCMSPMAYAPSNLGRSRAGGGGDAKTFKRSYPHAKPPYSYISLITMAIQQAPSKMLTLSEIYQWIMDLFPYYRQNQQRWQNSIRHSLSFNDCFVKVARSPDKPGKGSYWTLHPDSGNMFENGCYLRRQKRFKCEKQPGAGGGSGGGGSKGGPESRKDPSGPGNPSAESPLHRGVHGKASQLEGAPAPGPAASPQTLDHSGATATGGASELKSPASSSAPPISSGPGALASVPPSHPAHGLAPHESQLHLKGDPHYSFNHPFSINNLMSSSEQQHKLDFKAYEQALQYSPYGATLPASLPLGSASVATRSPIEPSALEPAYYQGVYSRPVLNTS
Technique: EMSA with sequencing
Molecule type: double-stranded DNA, one strand shown
Matrix: in vitro
Concentration: 10 and 20 nM
Notes: whole designed probe, mean of two concentrations, ends assumed
Relative to: negative control set to 0
Direction: higher = stronger binding
Quantity: normalised bound fraction
Constant ends, left off below: GTGAGCGGTGCCCATTGATGGGGAAC … TTTCACTGGGATCGTGGGGAC
GCTCAGCTTCCTCATCTAAGGAGGCAATAAAACCTTCCACTATGTGGTCAGGATTACAAGATTTAAAGTATATGAAATCTGTAAGGCCCTTATGCAAATAAAGATGTTATTATCCTACTTTGCAGATGAATGAAAAATATTACTGAATCAGAGAAACTAAGGTTCAGAGACATAAAGTCACTTGCTGACGTTT: 0.432 ratio
TAGGGTCCAATTCTGTCTGAGAAACTAGCGAGCCATATAAATATTGTATCTGGGTCAACAAACAGCTGTTCAAAAATATCTGTGGCATTTGCTGTTTACTTTGATTGCCTTGGATAATAGTCACTAGGCAACAGGACGGTTTGCTCTTTCGTGCATGGCGGCCGTTAGTTAAGTTGTTATATAACATGCCAAG: 0.368 ratio
TAATACAGTGTCCACCCCATACTGTAGTCTATCTGAACCTTATCCACTTTAGCTCAAATTTTAATAAAAGTCTACTTCAACCTGCATCTTCATGTTTACACAGTGATCTCAGTCCCAAACTGCCTATCCTCTGGGAATTCCTAATGCATTTATTATCTTGACCAGTTATGTAGATTCAAAGAATCTCATTTAT: 0.442 ratio
CTAGTTCCAGTCTTAGCATGACAATTTCTTCCTGCAACGTACTATTTTCATGCAAGAGGTCTTTTTCTTTCTTATAACTAAGAGAAAGCTAAGTAAACAAAGGGAACTTTTAGTTAGCACTCAATAGATTGATATACCATGATTTCTTCTGAAATTAAAAAATAACATCTGTATTTGTATAATGAAAGAATCC: 0.515 ratio
AGAACACCATGTGTAGGGAACCTGAATTTTTTGTAATAGGCCGTAAGCATGCCTGCCCTTTGGCCTGGAAAGAGACACTATATCTTCCAGGGCAGATTGCTGTGTAATCTTCCTTGAAAAGACAGCCTTGAACAAAGGGCAGTCAATAGTTCTACTCAAAAGACATGGAGAAATGCAAAAGACCCATGGAGAT: -0.0113 ratio
CACTCGGCTCCCCAGAGGTCAGCGCACCCCAAGCCCAGAGGCCGGCTGGCCTCGGCACGTCTCACTCCACTATCTTCCCTCCTCCCTGAACTCTGTTTACACAAGGCTGGTCTTGGCTCTGAGGCTGCTAGATTTTAAATGCAATCTCACTGGTGACTCACTGGTGCATCGTCATTTGGCTTTGCCTGGAATT: 0.484 ratio
GTGTGCTAGCCTGTGAGTTTTTCTCTCCAACTAGCCTGGGTACTCAGGAAAGTGAGATCAACTTCTGGGTGGCCTTGCGTCTAGCTGACCTGTGCAAATAGGGGAGACAGTTGACATACAGATGAAAGGGGAGATGGGAAGCCATACAGAGGAAGGAGAAGATCAGGAACCAGAGATAAGATAATTCTGTAAA: 0.181 ratio
CCAAGAAAAAGAGCCTTTGGGTGAGTGCACAGCACCCCTCTGTCTTAGGTCCCCAGATATATCTCAATTTGGGCTTCTTCTGGAACATGAAACAAATTACTTTGAGTTTCCTACGAAAACATAGTGCTGGCCTTAGACTTCCTATCCTGAAACCCCACGTCTATTTCCCAACCTCATGCATGGAAAAGTGCTC: -0.0817 ratio

Set 4
Target: Sal-like protein 4, full length isoform B (SALL4, Homo sapiens, UniProt Q9UJQ4-2, residues 1-616)
Technique: universal PBM
Molecule type: double-stranded DNA, one strand shown
Matrix: in vitro
Concentration: not given
Notes: 8-mer, flanks averaged, mean of replicates
Direction: higher = stronger binding
Quantity: E-score
Residues (chain): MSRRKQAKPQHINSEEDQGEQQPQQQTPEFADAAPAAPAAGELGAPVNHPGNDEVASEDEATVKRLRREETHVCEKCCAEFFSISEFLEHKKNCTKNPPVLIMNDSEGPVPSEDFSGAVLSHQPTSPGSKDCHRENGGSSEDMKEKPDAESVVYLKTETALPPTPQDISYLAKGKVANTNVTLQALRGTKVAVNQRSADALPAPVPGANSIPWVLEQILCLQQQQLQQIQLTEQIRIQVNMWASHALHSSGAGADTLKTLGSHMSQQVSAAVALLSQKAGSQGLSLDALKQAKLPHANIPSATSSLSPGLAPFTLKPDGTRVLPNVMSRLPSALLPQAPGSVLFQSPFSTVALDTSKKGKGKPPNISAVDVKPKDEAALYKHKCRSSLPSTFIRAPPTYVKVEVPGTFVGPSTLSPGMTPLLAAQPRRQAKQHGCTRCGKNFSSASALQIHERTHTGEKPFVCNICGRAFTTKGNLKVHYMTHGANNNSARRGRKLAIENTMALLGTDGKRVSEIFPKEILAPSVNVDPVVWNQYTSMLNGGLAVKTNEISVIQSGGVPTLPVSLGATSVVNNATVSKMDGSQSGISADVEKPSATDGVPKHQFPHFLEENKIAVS
ACAGGGAA: -0.0968
GGGGTCAA: -0.00188
GTCTCTGA: -0.148
CACCCTTA: 0.0285
ATCGCAGA: 0.00953
AGATTTCA: 0.192
ATAGCATC: 0.192
AGTGTCGC: -0.153
ACCAAGCA: -0.125
ACTGGACC: -0.321
GAATCATA: 0.354
CGGGTGGC: -0.332
AAGATGGA: 0.0335
GTAGGATA: 0.0529
CGAGAGCA: -0.0516
ACAGCGTC: -0.0626
ATCCACTA: 0.0854
ACGTGGAG: -0.137
ATTGGGTC: -0.0956
GTAGGCTA: -0.0689
ACGACAAC: -0.116
AGTGAAGC: 0.0461
GGGAGTGA: 0.0398
GAGGCTCA: -0.162
CTGTCACC: -0.107

Set 5
Target: Histone acetyltransferase KAT6A, winged helix 1, GST fusion (KAT6A, Homo sapiens, UniProt Q92794, residues 1-85)
Technique: protein binding microarray
Molecule type: double-stranded DNA, one strand shown
Matrix: in vitro
Concentration: not given
Notes: 8-mer, flanks averaged, mean of 2 arrays, mostly near background
Relative to: not given
Direction: higher = stronger binding
Quantity: E-score
Construct (chain): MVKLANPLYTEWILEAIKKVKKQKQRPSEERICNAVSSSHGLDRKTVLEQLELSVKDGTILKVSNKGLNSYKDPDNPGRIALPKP
AATATGAG: -0.182
AGCGCTGG: 0.197
TACATATA: -0.154
AAATAAGA: -0.0714
AGAATAGG: -0.163
TAAAACTA: -0.0735
CTGTTAAA: -0.093
CAACTCTA: -0.122
ATACAAAG: -0.0818
AGTGAACA: -0.155
CAAACGTC: 0.0146
CGCGACCG: 0.412
ACTAAGAT: -0.0501
GTGACAGA: -0.0693
CTTCCCTA: -0.0771
ACAGTCGC: 0.0673
AGATTTGA: -0.0909
CCGAGCGC: 0.334
AGCCTAGA: -0.0013
CGTTCCAA: -0.176

Set 6
Target: ABI1, truncated, D143A, DHFR fusion (Arabidopsis thaliana)
Technique: DHFR PCA, deep sequencing
Matrix: yeast
Notes: methotrexate growth selection, single substitutions
Added: (+)-ABA 2500 µM
Relative to: wild-type fitted maximum
Direction: higher = stronger binding
Quantity: relative binding score
Starting sequence: PYL1, truncated, DHFR fusion (Arabidopsis thaliana); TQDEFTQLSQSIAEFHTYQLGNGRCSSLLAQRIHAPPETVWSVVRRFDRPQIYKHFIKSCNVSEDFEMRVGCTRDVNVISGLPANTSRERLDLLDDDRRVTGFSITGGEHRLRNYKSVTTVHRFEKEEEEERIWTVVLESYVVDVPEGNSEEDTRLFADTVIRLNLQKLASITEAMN
F157H: 53.2%
L138T: 75.8%
A84V: 50.5%
R49T: 95.3%
T17Q: 102%
Y115A: 6.28%
H16T: 41%
P36N: 96.4%
R113E: 103%
Q51E: 99.7%
R88V: 97.3%
Q167P: 6.23%
I79L: 93.2%
F56H: 85.9%
L112A: 39.1%
V118G: 28.4%
V78Y: 62.8%
R88F: 94.4%
E131Q: 105%
D95N: 94.2%
G21Q: 93.4%
G107F: 72.3%
V118D: 42.8%
K58L: 90.2%
E109Y: 96.8%

For quick reference, copied from above (set 4):
ACGTGGAG: -0.137
ATCGCAGA: 0.00953
ATCCACTA: 0.0854
CGGGTGGC: -0.332
GTAGGCTA: -0.0689
AAGATGGA: 0.0335
GGGGTCAA: -0.00188
